Measurements gathered from unrelated publications.
Every numbered part comes from another study and shows a few of its results, in no order. Changes are numbered by the printed parent chain.

Block 1
Target: TAR DNA-binding protein 43, full length, His tag (TARDBP, Homo sapiens, UniProt Q13148, residues 1-414)
Technique: RNA Bind-n-Seq
Molecule type: RNA
Medium: in vitro
Concentration: 20 nM
Setting: 6-mer, flanks averaged, single round
Together with: 150 mM LiCl
Relative to: input library
Direction: higher = stronger binding
Sequence | 6-mer enrichment (R)
AGCAGC | 0.939
AAAUGG | 1
AACCGA | 0.782
UCCGGC | 0.902
UCCGUC | 0.887
CGAGAG | 0.968
CGCAGA | 0.866
AGUGGA | 1.11

Block 2
Target: Interferon regulatory factor 7, full length, phosphomimetic (IRF7, Homo sapiens, UniProt Q92985, residues 1-503, S471D/S472D/S475D/S476D/S477D/S483D/S484D/S487D)
Chain of UniProt Q92985 (whole entry, unmodified, looked up): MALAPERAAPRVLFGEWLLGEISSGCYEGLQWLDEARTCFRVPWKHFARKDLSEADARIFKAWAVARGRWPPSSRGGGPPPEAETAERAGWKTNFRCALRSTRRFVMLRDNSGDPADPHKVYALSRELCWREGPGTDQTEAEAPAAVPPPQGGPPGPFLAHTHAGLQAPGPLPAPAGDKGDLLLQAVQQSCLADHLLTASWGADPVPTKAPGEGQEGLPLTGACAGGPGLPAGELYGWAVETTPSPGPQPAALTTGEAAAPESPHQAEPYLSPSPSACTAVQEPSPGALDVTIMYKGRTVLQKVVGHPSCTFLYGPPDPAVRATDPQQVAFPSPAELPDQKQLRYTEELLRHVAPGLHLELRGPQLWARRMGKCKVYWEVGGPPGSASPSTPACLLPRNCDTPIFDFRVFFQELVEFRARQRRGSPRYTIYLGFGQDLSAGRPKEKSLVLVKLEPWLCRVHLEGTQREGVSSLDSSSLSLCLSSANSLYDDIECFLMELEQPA
Technique: protein-binding microarray
Molecule type: double-stranded DNA, one strand shown
Medium: in vitro
Concentration: 2200 nM top
Setting: 60-bp whole probe
Together with: salmon DNA 0.4 mg/ml
Relative to: random background probes
Direction: higher = stronger binding
Shared flanks, not repeated: GCCTAGCACT … GTCTTGATTCGCTTGACGCTGCTG
Sequence | fitted relative affinity [z-score]
TAGGTCTCGGTATCGGTTTGTGCTAG | 1.83
CACACATGCATCTCCCACTGTGCTAG | 1.69
TAGGGTCCGGTTTCGGTTAGTGCTAG | 6.99
TAGGTCTCCATCTCCTTTAGTGCTAG | 1.31
TAGATCTCAGACTGGAATAGTGCTAG | -0.382
CAACTTTCTTTCAAATACTGTGCTAG | 1.11
AAGATATCGGGTTTCGATTAGTGCTA | 2.74
CAGATGTGTATATGACACTGTGCTAG | 0.308

Further values, each from its own experiment
P1: viral docking peptide; CKVKRKLFGSENI; partner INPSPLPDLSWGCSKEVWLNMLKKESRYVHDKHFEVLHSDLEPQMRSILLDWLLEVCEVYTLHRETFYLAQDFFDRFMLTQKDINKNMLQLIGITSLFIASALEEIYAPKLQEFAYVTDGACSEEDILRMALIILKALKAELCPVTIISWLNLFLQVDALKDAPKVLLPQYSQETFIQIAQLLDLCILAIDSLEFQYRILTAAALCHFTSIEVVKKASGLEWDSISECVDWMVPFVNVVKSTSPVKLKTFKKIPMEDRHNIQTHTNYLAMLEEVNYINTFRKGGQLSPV
Substance | tested on | assay | system | conditions | how to read | endpoint | value
P1 E11A | CCNE2, cyclin fold, Cln2 fusion (human) | yeast growth competition, sequencing | yeast | strong parent motif | relative to: not given, higher = stronger binding | normalised enrichment score | 2.88
PhoQ, residues 284 288 289 292 302 303 TAVSDG | PhoP, residues 12 14 15 18 19 NHFRA (Escherichia coli, UniProt P23836) | Sort-seq, item: YFP reporter | E. coli | PhoQ-PhoP variant library, together with: 10 µM Mg2+ | relative to: high Mg2+ state, higher = stronger signaling | fold induction | 1.65
YWHAB (Homo sapiens, UniProt P31946) | YWHAG (Homo sapiens, UniProt P61981) | cross-linking MS | – | hits only | – | interaction screen | cross-linked

A few entries again (block 1):
Sequence | 6-mer enrichment (R)
AAAUGG | 1
AACCGA | 0.782
